Experimental data collected from several papers.
Every numbered part comes from another study and shows a few of its results, in no order. Positions count from the first letter of the parent shown.

Set 1 — method: RNA Bind-n-Seq; form: RNA; sample: in vitro; tested at: 365 nM; baseline: no-protein control; reading: higher = stronger binding
Target: RNA binding protein fox-1 homolog 2, RRM domain, GST-SBP tag (RBFOX2, Homo sapiens, UniProt O43251-10, residues 100-194)
Setting: natural RNA segment, single round, ends assumed
Shared flanks, not repeated: GGGAGUUCUACAGUCCGACGAUC … UGGAAUUCUCGGGUGCCAA
Target sequence (chain): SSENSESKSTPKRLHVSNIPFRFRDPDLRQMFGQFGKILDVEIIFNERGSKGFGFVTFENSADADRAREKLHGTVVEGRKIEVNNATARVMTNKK
Sequence | RBNS enrichment (R)
AGCUCAGUACAAAUUAAUUUAAGUAAAAAACGUUUUAGAAUUUCAAAUAUCCUAAAAUAGGAAAUACUUGAACGUUUUAAUGAGAAAUUUCUAUGGUUGAAAUUCAUAGC | 0.533
CUUCUCUUACCAGAGCAUCUGUUUGCAGAGGUAACAUUACCUUCCCCAGCCACAGGUAUGUGGAAUACGGUGAGGAAAAAAAAAAUUAAAAAAAAAAUGCAAGCUGUCAG | 0.399
GAAGUUAAAAAAUAAUGUCUGAUCCUGUUCCUAAGUUCCAAACUAUAGCCAACACUCUGAUGCUGCUCUUUUUCUUGUAGGACCAACCGUCCCAGUUUGCCUGGGACUUU | 0.283
AAUAGUUGAACUUGACAGCAUAUAACUUAAAGUGAAAAUGUUUUUGCCAGAACAUGUCUUGGUACCUUGUGAAAGCAGGCUGCCCUUGUUCUUGAGAUAGACUUUAAAAU | 0.415
GGAGCUUAGACGCCACAUCAGGGUAAUGAGGGGGAUCACGGAGAAUCAAAACCCUCAGAGGGUCCUGAUGAGCAGAGAGUCUUUCCCUGGCCUUUCGAGCUUCAGAGAUG | 0.632
AUGAAGAAGAAGAGGGAAAUGGAUGAACUUAGGAGCUAUUCAUCACUAAUGAAAGUUGAAAAUAUGUCUUCAAAUCAGGAUGGCAAUGAUUCAGAUGAAUUCAUGUAAAA | 0.986
CACAGAGGCUCCUAAGAUACAUGAGACCUUUGCAGUGUUUUCUCUCCACCUUCUGAGACAGAGGGAAGCAAGGAAACAGGGGAGAAAAAAAAGAGUGAACAAAUUCAGUG | 0.742
AACUCUAACUCGGAGACGUCUAGCUGGCAAUGUUUCUAAAACUUUCACUGGAUUUCUUUAGACAUUGAAGCAAACAUUUUUUUCUAAGAAUUGCUUCUCAGAUGAUGAUA | 0.337
UUUUUUUUUAUAAUAAGCCUUUUUACCUCUGUAAAAAUAUAUAUAUAUACAAGUGUAUGAUGUACAUUUUAGUUCUUAACUUUUUUAUGGUUUCUAAUAUGUAUGACCAA | 0.58
UUGAAGGGUGUUUUAGGGUAUCUGCCCACAGAUUUUCUCCAAACAAUUGGGAAGUGCCUAGAGUCCAGGCCCCGAUCAUCAAAGAUGUCUAUAUUGUAUAAUAUUUAAAG | 0.298
UUCAGAUCACAAAGCAAACAGUCACCAAGGAUCUGUCUUCCAACUCUUUUUUUUUUCUGCUGAAAUGAAGCUACAUGUCAUGUUUGUGUUCUUUCAUCUGUGGCUCAUCC | 0.802
CCUGCCCAAGAGCUCCCCACACGCCUCACGUGUUGGAGGGACUGAACACGUCCAGCCAAUCACCUGAAAUUGGGGUGUACAGAGAGGGUGCUGCUGUCACCCAGCUAUCU | 0.21

Set 2 — method: DHFR PCA, deep sequencing; sample: yeast; with: (+)-ABA 2500 µM; baseline: wild-type fitted maximum; reading: higher = stronger binding
Target: ABI1, truncated, D143A, DHFR fusion (Arabidopsis thaliana)
Setting: methotrexate growth selection, single substitutions
Starting sequence: PYL1, truncated, DHFR fusion (Arabidopsis thaliana); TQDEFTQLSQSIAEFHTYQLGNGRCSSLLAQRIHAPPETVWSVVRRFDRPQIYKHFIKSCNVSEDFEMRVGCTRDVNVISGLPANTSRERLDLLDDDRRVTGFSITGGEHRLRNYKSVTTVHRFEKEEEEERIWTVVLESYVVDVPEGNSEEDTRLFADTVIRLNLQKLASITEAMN; partner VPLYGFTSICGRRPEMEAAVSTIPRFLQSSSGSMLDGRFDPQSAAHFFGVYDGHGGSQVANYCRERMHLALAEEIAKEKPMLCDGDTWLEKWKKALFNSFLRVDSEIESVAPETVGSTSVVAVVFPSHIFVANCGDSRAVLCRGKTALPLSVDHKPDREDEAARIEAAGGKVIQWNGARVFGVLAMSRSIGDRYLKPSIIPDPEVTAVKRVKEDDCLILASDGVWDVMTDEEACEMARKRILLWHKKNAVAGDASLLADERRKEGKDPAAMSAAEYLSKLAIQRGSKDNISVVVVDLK
Substitution | relative binding score [%]
Y141V | -6.33
I12Y | 89
L29W | 67.3
N85M | 95.1
S27M | 88.9
D75M | 101
N165E | 18.5
F47N | 6.1
K126P | 103
L166D | 4.76
E174T | 93.9
F5W | 104

Set 3 — target: CCNE1, cyclin fold, Cln2 fusion (human); method: yeast growth competition, sequencing; sample: yeast; setting: strong parent motif; baseline: not given; reading: higher = stronger binding
Starting sequence: CDC25A docking peptide (human); PPHRRRLLFACSP
Substitution | normalised enrichment score
PPHRRRLLFAASP [C11A] | 1.36
PPHQRRLLFACSP [R4Q] | 1.08
PPERRRLLFACSP [H3E] | 0.548
PIHRRRLLFACSP [P2I] | 1.07
PPHRGRLLFACSP [R5G] | 0.808
PPHRRRLLFAMSP [C11M] | 1.07
PPHRLRLLFACSP [R5L] | 1.6
PPHRRRYLFACSP [L7Y] | 0.632
PPHRRRLQFACSP [L8Q] | 0.678
PPHERRLLFACSP [R4E] | 0.204
PPHRRRLLHACSP [F9H] | 0.515
PPVRRRLLFACSP [H3V] | 4.17
PPHRPRLLFACSP [R5P] | 0.103
PPHRRRTLFACSP [L7T] | 0.939
PPHRRYLLFACSP [R6Y] | 0.271
PPHRFRLLFACSP [R5F] | 1.55
TPHRRRLLFACSP [P1T] | 1.49
PPHRRRLLFHCSP [A10H] | 1.5
PPHRRRLLFACST [P13T] | 1.76
PPHRRRLLTACSP [F9T] | 1.15
PPHWRRLLFACSP [R4W] | 0.941

Set 4 — method: RNA Bind-n-Seq; form: RNA; sample: in vitro; tested at: 200 nM; setting: whole 134-nt RNA, ends assumed; with: 150 mM KCl; baseline: input library; reading: higher = stronger binding
Target: Fragile X messenger ribonucleoprotein 1, C-terminal low-complexity region (Fmr1, Mus musculus, UniProt P35922)
Shared flanks, not repeated: GGGAGUUCUACAGUCCGACGAUC … UGGAAUUCUCGGGUGUCAAGG
Sequence | log2 enrichment
AAGUCCUGUGCUACACAUCGUAUGUACCGAAUCGGGGAGGGGUGGGGAAAAAGGGGAAAGUAUUAUGUUACGCCGUUCGGAUCUGCACUU | 0.697
CAAGUCCUGUGCUACACAUCGUAUGUACCGAAUCGGGAGGGUUUGGGUUUUUGGGAAAGUAUUAUGUUACGCCGUUCGGAUCUGCACUUC | 0.869
AAGUCCUGUGCUACACAUCGUAUGUACCGAAUCAAACCCCCAAAUUUAAACCCAAAAAAGUAUUAUGUUACGCCGUUCGGAUCUGCACUU | -0.137
AGUCCUGUGCUACACAUCGUAUGUACCGAAUCGGGGUUUUGGGUUUUGGGGUUUUGGAAAGUAUUAUGUUACGCCGUUCGGAUCUGCACU | 0.101
AAGUCCUGUGCUACACAUCGUAUGUACCGAAUCGGGAGGGUUUGGGAAAAAAAGGGAAAGUAUUAUGUUACGCCGUUCGGAUCUGCACUU | 0.378
UCAAGUCCUGUGCUACACAUCGUAUGUACCGAAUCGGGGAGGGGUGGGGUGGGGAAAGUAUUAUGUUACGCCGUUCGGAUCUGCACUUCC | 1.48
UCCUGUGCUACACAUCGUAUGUACCGAAUCGGGGUUUUUGGGGUUUUUGGGGUUUGGGGAAAGUAUUAUGUUACGCCGUUCGGAUCUGCA | 0.882
CAAGUCCUGUGCUACACAUCGUAUGUACCGAAUCGGUGGUUUUUUUGGUUUUUGGAAAGUAUUAUGUUACGCCGUUCGGAUCUGCACUUC | -0.559
CUCAAGUCCUGUGCUACACAUCGUAUGUACCGAAUCGGUGGUGGUUUUUUUGGAAAGUAUUAUGUUACGCCGUUCGGAUCUGCACUUCCA | -0.14
CUCAAGUCCUGUGCUACACAUCGUAUGUACCGAAUCGGAAAGGAAAGGGAAAGGAAAGUAUUAUGUUACGCCGUUCGGAUCUGCACUUCC | -0.439
UCCUGUGCUACACAUCGUAUGUACCGAAUCGGGGCCCCCCGGCCCCCCGGCCCCCCGGGGAAAGUAUUAUGUUACGCCGUUCGGAUCUGC | -0.14
UAAUUGAAGAACCCAUUUUGCUCAUUUUAGGCAUCGUUAAAGAAUCUGGAGUGAAGCACAAGGGAUUGAUUGAAAUACCCAAUCUUUCUG | 0.118
AGUCCUGUGCUACACAUCGUAUGUACCGAAUCGGGGUGGGGAGGGGUUUUUUUGGGGAAAGUAUUAUGUUACGCCGUUCGGAUCUGCACU | 0.943
UCCUCAAGUCCUGUGCUACACAUCGUAUGUACCGAAUCGGUGGGGUGGGUGGAAAGUAUUAUGUUACGCCGUUCGGAUCUGCACUUCCAG | 0.364

Set 5 — method: protein binding microarray; form: double-stranded DNA, one strand shown; sample: in vitro; tested at: not given; baseline: not given; reading: higher = stronger binding
Target: Histone acetyltransferase KAT6A, both winged helices, GST fusion (KAT6A, Homo sapiens, UniProt Q92794, residues 1-181)
Setting: 8-mer, flanks averaged, mean of 2 arrays, mostly near background
Residues (chain): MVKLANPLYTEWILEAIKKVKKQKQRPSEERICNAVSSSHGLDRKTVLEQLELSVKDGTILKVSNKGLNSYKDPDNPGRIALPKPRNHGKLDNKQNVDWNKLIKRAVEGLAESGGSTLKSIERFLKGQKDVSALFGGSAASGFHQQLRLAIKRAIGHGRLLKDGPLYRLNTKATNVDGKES
Sequence | E-score
AGGGTGAC | -0.0735
AAGTCCAG | -0.0894
CGTCACAG | 0.129
CCATCTCC | -0.0927
TACGCCTA | -0.0275
GCTAATAA | 0.0403
GTAACCAC | -0.0337
CCCCGCCC | 0.186
ACAAACAC | 0.059
AGTAAATA | -0.0496
CGTGAACG | 0.152
TGGAGAAA | -0.0652
AACTGCGC | 0.243
CCGCGAAG | 0.231
GCTTGCTA | -0.0928
ACAAGGGG | -0.216
GAACGTCC | 0.0156
GAACTAAA | -0.126

Set 6 — method: universal PBM; form: double-stranded DNA, one strand shown; sample: in vitro; tested at: 600 nM; reading: higher = stronger binding
Target: Sal-like protein 4, full length isoform A (SALL4, Homo sapiens, UniProt Q9UJQ4, residues 1-1053)
Chain of UniProt Q9UJQ4 (whole entry, looked up): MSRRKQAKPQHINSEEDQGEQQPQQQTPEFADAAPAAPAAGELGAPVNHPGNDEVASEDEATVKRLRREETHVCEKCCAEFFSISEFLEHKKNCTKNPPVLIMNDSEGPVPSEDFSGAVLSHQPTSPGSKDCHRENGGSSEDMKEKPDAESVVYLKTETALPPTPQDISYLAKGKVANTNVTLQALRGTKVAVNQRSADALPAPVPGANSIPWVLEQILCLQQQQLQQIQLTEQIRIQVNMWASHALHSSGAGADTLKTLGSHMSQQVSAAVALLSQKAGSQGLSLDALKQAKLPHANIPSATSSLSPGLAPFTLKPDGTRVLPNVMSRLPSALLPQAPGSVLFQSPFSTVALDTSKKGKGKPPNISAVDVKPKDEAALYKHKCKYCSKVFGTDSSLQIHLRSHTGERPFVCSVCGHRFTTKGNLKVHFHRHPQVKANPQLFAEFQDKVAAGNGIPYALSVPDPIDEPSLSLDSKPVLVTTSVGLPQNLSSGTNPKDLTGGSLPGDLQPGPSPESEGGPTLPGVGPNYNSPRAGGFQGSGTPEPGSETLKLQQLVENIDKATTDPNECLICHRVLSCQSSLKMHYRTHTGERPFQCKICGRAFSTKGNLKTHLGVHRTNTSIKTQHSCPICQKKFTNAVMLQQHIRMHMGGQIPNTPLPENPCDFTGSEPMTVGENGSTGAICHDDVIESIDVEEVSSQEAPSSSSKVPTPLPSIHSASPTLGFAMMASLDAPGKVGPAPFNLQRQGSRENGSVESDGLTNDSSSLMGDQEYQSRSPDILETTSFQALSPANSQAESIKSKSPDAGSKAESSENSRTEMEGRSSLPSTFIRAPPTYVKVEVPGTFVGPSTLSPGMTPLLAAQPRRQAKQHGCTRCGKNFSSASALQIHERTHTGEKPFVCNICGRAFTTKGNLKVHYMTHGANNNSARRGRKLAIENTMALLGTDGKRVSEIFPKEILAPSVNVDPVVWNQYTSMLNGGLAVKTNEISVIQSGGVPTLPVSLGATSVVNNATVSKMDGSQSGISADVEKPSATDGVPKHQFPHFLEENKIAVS
Setting: 8-mer, flanks averaged, mean of replicates
Sequence | E-score
AATGCAAT | 0.249
GATTCGGC | -0.183
CGGAAACA | 0.0205
ATCATCTC | 0.218
CGAAACCA | 0.0811
TAACTAGA | 0.32
CTGCAAGC | -0.176
CCGCCTCC | -0.192
CCGGCGCC | -0.338
GTCGGCAA | -0.257
CATCAGCC | -0.158
GGGTGGGA | -0.151
CTGCTACC | -0.0482
CCAGAAAA | 0.0775
ATTTCCGG | 0.0321
AAACTTCT | 0.197

Other studies, line by line
Substance | target | test | system | conditions | how to read | measurement | result
PhoQ, residues 284 288 289 292 302 303 TTCLQL | PhoP, residues 12 14 15 18 19 AWHSL (Escherichia coli, UniProt P23836) | Sort-seq, refers to: YFP reporter | E. coli | PhoQ-PhoP variant library, with: 10 µM Mg2+ | baseline: high Mg2+ state, higher = stronger signaling | fold induction | 2.66
